Experimental data of several laboratories.
Compare with care: the assays were run in different laboratories. ± marks the error that the study gave. In brackets after ≈: the same amount, converted by molar mass.

| SMILES | tested on | test | system | setting | how to read | measurement | result |
| --- | --- | --- | --- | --- | --- | --- | --- |
| C[C@H](Nc1ncnc(N)c1C#N)c1c(-c2ccccc2)[nH]c2c(Cl)cccc2c1=O | WSU-NHL | annexin V flow cytometry |  | 0.3 µM | relative to: untreated | apoptotic cells | 4.2 fold |
| CNCc1ccc2c(c1)C[C@H](CNC(=N)N)[C@H]2NC(=O)C(=O)Nc1ccc(Cl)c(F)c1 | Human immunodeficiency virus 1 | viral infection, Env pseudovirus | TZM-bl, 6952.v1.c20 clade CD |  |  | IC50 | 4250 nM |
| F[P-](F)(F)(F)(F)F.OC(Cn1cncn1)(Cn1cc(-[c-]2cccc2)nn1)c1ccc(F)cc1F.[Co+3].c1cc[cH-]c1 (racemic) | Trichuris muris | Worminator | adult males and females | 100 µM, day 1 |  | motility inhibition | 25% |
| CNCc1ccc2c(c1)N(C(=O)OCc1c(F)c(F)c(F)c(F)c1F)[C@H](CNC(=N)N)[C@H]2NC(=O)C(=O)Nc1ccc(Cl)c(F)c1 | Human immunodeficiency virus 1 | viral infection, Env pseudovirus | TZM-bl, 3301.v1.c24 clade AC |  |  | IC80 | 5990 nM |
| Oc1c(Br)ccc2cccnc12 | Corynebacterium diphtheriae | agar dilution | NCTC 10356 |  |  | MIC | 35.7 µM (≈ 8 µg/mL) |
| C=C1C[C@](OC)([C@H](O)C(=O)NC[C@@H]2C[C@@H](OC)C(C)(C)[C@@H](C[C@@H](COC)OC)O2)O[C@H](C)[C@@H]1C | A549 | cell viability, sulforhodamine B |  | 72 h, 37 °C, together with: 100 µM H2O2 |  | IC50 | 8 ± 2 nM |
| CO[C@H]1O[C@H](COC(c2ccccc2)(c2ccccc2)c2ccccc2)[C@@H](OS(=O)(=O)c2ccccc2)[C@H](OS(=O)(=O)c2ccccc2)[C@H]1OS(=O)(=O)c1ccccc1 | Aspergillus flavus | mycelial growth, poisoned food technique |  | 20 µg/µL, DMSO |  | inhibition | 66.46 ± 0.3% |
| CC(=O)NCCN(CCC(=O)NCCN(CCC(=O)NCCN(CCC(=O)NCCC(N)=O)C(=O)[C@@H](N)Cc1ccccc1)C(=O)[C@@H](N)CCCNC(=N)N)C(=O)[C@@H](N)Cc1ccccc1 | HIV-1 TAR RNA |  |  | concentration not given, 25 °C |  | binding entropy term TΔS° | 0.191 ± 0.0717 kcal/mol |
| CC(C)(C)C(=O)Nc1ccc2[nH]c(CN3CCC(N(CCCN4CCOCC4)CC4OC(n5cnc6c(N)ncnc65)C(O)C4O)CC3)nc2c1 (stereo not drawn) | H460 wild type or R231Q cells | Transwell |  | 2.5 and 5 µM, 72 h | relative to: untreated | invading cells | decreased |
| CCCOC(=O)N1c2cc(CNC)ccc2[C@H](NC(=O)C(=O)Nc2ccc(Cl)c(F)c2)[C@H]1CNC(=N)N | Human immunodeficiency virus 1 | viral infection, Env pseudovirus | TZM-bl, 231965.c01 clade D |  |  | IC50 | 203 nM |
| CC[C@H](C)[C@H](NC(=O)[C@H](Cc1ccccc1)NC(=O)[C@@H](NC(=O)[C@@H](NC(=O)[C@H](CC(C)C)NC(=O)[C@H](CCCCN)NC(=O)[C@@H](N)CCCCN)[C@@H](C)CC)[C@@H](C)O)C(=O)N[C@@H](CC(C)C)C(=O)N[C@@H](CCCNC(=N)N)C(=O)N[C@@H](CCCNC(=N)N)C(=O)N[C@H](C(=O)N[C@@H](CCCNC(=N)N)C(=O)N[C@@H](CCC(=O)O)C(=O)N[C@@H](CCCCN)C(=O)N[C@@H](CCCCN)C(=O)N[C@@H](CCCCN)C(=O)N[C@@H](CCC(=O)O)C(=O)N[C@@H](CS)C(=O)N[C@@H](CC(C)C)C(=O)N[C@H](C(=O)O)C(C)C)[C@@H](C)O | TTX-sensitive sodium channel | open-channel blocker, kinetic model fit | mouse hippocampal CA3 neurons | 200 µM intracellular, membrane potential -30 mV |  | unblocking rate constant | 232 s⁻¹ |
| CC(=O)NCCN(CC(=O)NCCN(CC(=O)NCCN(CC(=O)NCCC(N)=O)C(=O)[C@@H](N)Cc1ccccc1)C(=O)[C@@H](N)CCCNC(=N)N)C(=O)[C@@H](N)CCCNC(=N)N | HIV-1 TAR RNA |  |  | concentration not given, 25 °C |  | binding entropy term TΔS° | -4.68 ± 0.12 kcal/mol |

Some of these lines once more:
| SMILES | tested on | test | system | setting | how to read | measurement | result |
| --- | --- | --- | --- | --- | --- | --- | --- |
| CO[C@H]1O[C@H](COC(c2ccccc2)(c2ccccc2)c2ccccc2)[C@@H](OS(=O)(=O)c2ccccc2)[C@H](OS(=O)(=O)c2ccccc2)[C@H]1OS(=O)(=O)c1ccccc1 | Aspergillus flavus | mycelial growth, poisoned food technique |  | 20 µg/µL, DMSO |  | inhibition | 66.46 ± 0.3% |
